Results gathered from unrelated publications.
Every numbered part comes from another study and shows a few of its results, in no order. Substitutions count along the parent as printed.

Block 1 — method: RNA Bind-n-Seq; form: RNA; medium: in vitro; concentration: 200 nM; setting: whole 134-nt RNA, ends assumed; with: 150 mM LiCl; relative to: input library; reading: higher = stronger binding; each molecule: 7-deaza-guanosine replaces G
Target: Ras GTPase-activating protein-binding protein 1, full length (G3BP1, Homo sapiens, UniProt Q13283)
Sequence of UniProt Q13283 (whole entry, looked up): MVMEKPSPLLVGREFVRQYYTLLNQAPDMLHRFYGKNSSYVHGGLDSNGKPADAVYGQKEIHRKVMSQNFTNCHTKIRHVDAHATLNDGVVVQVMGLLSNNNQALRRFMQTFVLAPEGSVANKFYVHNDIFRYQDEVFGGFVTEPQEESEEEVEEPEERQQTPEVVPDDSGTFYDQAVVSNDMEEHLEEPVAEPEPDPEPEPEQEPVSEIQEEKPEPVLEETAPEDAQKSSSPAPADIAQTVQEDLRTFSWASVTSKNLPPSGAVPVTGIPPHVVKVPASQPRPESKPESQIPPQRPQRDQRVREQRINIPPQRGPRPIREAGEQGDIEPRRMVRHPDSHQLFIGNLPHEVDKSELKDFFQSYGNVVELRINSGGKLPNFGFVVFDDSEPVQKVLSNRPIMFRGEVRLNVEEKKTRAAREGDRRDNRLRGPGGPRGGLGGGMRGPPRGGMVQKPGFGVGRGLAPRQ
Shared flanks, not repeated: GGGAGUUCUACAGUCCGACGAUC … UGGAAUUCUCGGGUGUCAAGG
Sequence | log2 enrichment
UGGCCCUGGUGGCAUGAGGGGAGGAAGAGGUGGCCUCAUGGAUCGUGGUGGUCCCGGUGGAAUGUUCAGAGGUGGCCGUGGUGGAGACAG | 0.656
UCCUGUGCUACACAUCGUAUGUACCGAAUCGGGUUUUUGGGUUUUUGGGAAAAAAAGGGAAAGUAUUAUGUUACGCCGUUCGGAUCUGCA | -0.0405
AAGUCCUGUGCUACACAUCGUAUGUACCGAAUCGGAGGUUUUUUUGGAAAAAAAGGAAAGUAUUAUGUUACGCCGUUCGGAUCUGCACUU | -1.13
CAAGUCCUGUGCUACACAUCGUAUGUACCGAAUCGGGUUUGGGGUUUGGGUUUGGGAAAGUAUUAUGUUACGCCGUUCGGAUCUGCACUU | -0.933
UAAGAAGGAAAUUGAGAGGAGAAAAACUGGAAAAGAAAUGUUGGAUUAUAAAAGAAAACAAGAAGAAGAAUUAACAAAAAGAAUGCUGGA | -0.96
AGUCCUGUGCUACACAUCGUAUGUACCGAAUCGGGGCCCCGGGCCCCGGGGCCCCGGAAAGUAUUAUGUUACGCCGUUCGGAUCUGCACU | -0.0682
CAAGUCCUGUGCUACACAUCGUAUGUACCGAAUCGGAAAAGGGAAAAGGAAAAGGGAAAGUAUUAUGUUACGCCGUUCGGAUCUGCACUU | -1.07
CUCAAGUCCUGUGCUACACAUCGUAUGUACCGAAUCGGUUUGGAAAGGUUUGGAAAGUAUUAUGUUACGCCGUUCGGAUCUGCACUUCCA | -0.16
CACAGACAACUCGCACCCACACAGACACAGAGGGAAGGGGUUGGGAUGGGGACAGGGUGCACAGCAGGGCGGGGUAGGACCCCAGCCCCU | -0.00536
GUCCUGUGCUACACAUCGUAUGUACCGAAUCGGAAAAAGGAAAAAGGGGAAAAAGGGGAAAGUAUUAUGUUACGCCGUUCGGAUCUGCAC | -0.0447
AAGUCCUGUGCUACACAUCGUAUGUACCGAAUCGGAAAAAGGAAAGGAAAAAAAGGAAAGUAUUAUGUUACGCCGUUCGGAUCUGCACUU | -0.464

Block 2 — target: CCNA1, cyclin fold, Cln2 fusion (human); method: yeast growth competition, sequencing; medium: yeast; setting: weak parent motif; relative to: not given; reading: higher = stronger binding
Parent: CDC42EP1 docking peptide (human); SLVVGKLSFDSSP
Substitution | normalised enrichment score
SLVVGKLSFDSSA [P13A] | -0.464
SLVVGKLSFDSAP [S12A] | -0.214
SLVVGKLSFDASP [S11A] | -0.726
SLVVGKLSADSSP [F9A] | -0.344
SAVVGKLSFDSSP [L2A] | -0.348
SLVVGALSFDSSP [K6A] | -0.353
SLVVAKLSFDSSP [G5A] | -0.209

Block 3 — method: RNA Bind-n-Seq; form: RNA; medium: in vitro; concentration: 365 nM; relative to: no-protein control; reading: higher = stronger binding
Target: RNA binding protein fox-1 homolog 2, RRM domain, GST-SBP tag (RBFOX2, Homo sapiens, UniProt O43251-10, residues 100-194)
Setting: natural RNA segment, single round, ends assumed
Shared flanks, not repeated: GGGAGUUCUACAGUCCGACGAUC … UGGAAUUCUCGGGUGCCAA
Residues (chain): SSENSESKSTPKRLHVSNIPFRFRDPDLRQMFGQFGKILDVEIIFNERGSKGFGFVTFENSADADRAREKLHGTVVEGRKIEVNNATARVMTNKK
Sequence | RBNS enrichment (R)
AGUUUCUCUUUUGUGUGCUUUACCAAGUGGCCGGUGACUACAGGCCACCCCGAUUCUCACCACAAAGUUAGAAACCCUCCACUUUCUGUCCCUUGAACCAUAUCAGAAAA | 0.252
AAUGUCAGUGACAUUUUUUUAUUUUUGAAGUACUUUGACACUCCCAGCCUCUACUUUAUUAGAAUUGGAAGACGAAUUUUUCUUCAAAAGCCUUCUACAGACAAAUACUU | 0.599
GUUUGGACCUCUAGGGAGGAGGGUUUUGGUCAUACUCUCCUUAUCCUCGUGCACAGAAAUGCUCAGGGUCCCCAUGUGCCUGUUGUUCAGCCCUCUCUCUUGUUCCCUUU | 0.998
UGUCCUAAUCAUACUUAAACAUCAGGCAGGUGGGGUUCAGUGGUAAGCGAAGGGAUUAUUAGCAAGGUAAUGCCUGUGUAUGGUCAUAUAGGCACAAAUGCAGAACACCC | 0.773
UACUGACCGCUAUAGAGCAGAUACUCUGAGGGCCGACCCUCGCCUUUUCAUAGACAGACGAGGCAACUGCAUAUAGGUUUUGUCUUUAAAACCACCUUUAAUCUAGAUAC | 0.284
AGAUCAAGUUCUAUGCCAGGGCUGCAGCCAAGCAGGCCCUGAGUGGAGGAUCCUGACUCUCCUCUUUCCCAAACCAAGAGUUCAAGACUUUGGCGCCUUUUCUGAACCAC | 0.246
GGUAGAGGGGGAAAAAAAGUAGUGCCAUGGGGCCACGGGGCCCAGCUUAUUCCGUGUAGAUGCUUGUUUUUGUCCCUGCCUCCGAGGAACUUGUUCAUGAUUGUGCUCUG | 4.31
UCCUCAUCCCUUCAGCAAUAUGUAUUUGAGUUCACACUAUUUCUGUUUUACAGCAGUUUUGAAAAACACAUACUAUGCCACCAAUUGUCAUAUUAUUUUUAGAUGAUGUA | 0.382
ACACUUGUGAACGUGUGAACGUUAACACUGUAGUUGAUAGAUCUUAAGCUGCUAAUUGUUGAGAGAGAUUUAAAUUUAUGUUCUGUCUGGUCGCUGCAGAUUCUCAGCAG | 0.552
AUGGACCCUUCUCCUGGGGCAUUUGUUUUGUUUUCAUAAUAAAAAGCAAAAAAAAAAAAAAAAAAAAGACUGUUUUUUUUUUUUGCAUUUUCCUGUGCUUUCUGUGGGGG | 1.27
ACUGGGAAAAUACAAAAGCUCUGGGCUAAUCUAUAAAAACUUACCCUGAAAUAUUAAGGGCAGUUUGCUUCUAGUUUGGGGAUUGCGCUAGCCCAAUGAAGGUGAUGAAG | 0.43
UGGACAGAAAGGGGACCCGACUGCUUUGGACCUAGAUGGCCUAUUGCGGCUGGAGGAUCCUGAGGACAGGAGAGGGGCUUCGGCUGACCAGCCAUAGCACUUACCCAUAG | 0.214

Block 4 — method: DHFR PCA, deep sequencing; medium: yeast; with: (+)-ABA 0.11 µM; relative to: wild-type fitted maximum; reading: higher = stronger binding
Target: ABI1, truncated, D143A, DHFR fusion (Arabidopsis thaliana)
Setting: methotrexate growth selection, single substitutions
Parent: PYL1, truncated, DHFR fusion (Arabidopsis thaliana); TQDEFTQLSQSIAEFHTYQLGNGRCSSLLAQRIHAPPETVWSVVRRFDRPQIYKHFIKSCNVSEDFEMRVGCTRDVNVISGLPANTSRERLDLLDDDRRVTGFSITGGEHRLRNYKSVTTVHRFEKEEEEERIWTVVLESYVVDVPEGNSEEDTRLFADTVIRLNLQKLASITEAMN
Substitution | relative binding score [%]
S104H | -1.8
T160G | -1.04
P37R | -2.45
F47E | -3.3
R123P | 30
V143H | -0.923
D159S | 0.644
V76N | -7.77
D153T | -7.07
L138K | -8.27
E131P | 63.2
Q19F | -0.798
Y53G | -3.55
I105F | 0.853
R88D | -1.14
L169M | -2.31
L29A | 0.0642
Y53N | -4.96

Block 5 — method: protein binding microarray; form: double-stranded DNA, one strand shown; medium: in vitro; concentration: not given; relative to: not given; reading: higher = stronger binding
Target: Histone acetyltransferase KAT6A, winged helix 2, GST fusion (KAT6A, Homo sapiens, UniProt Q92794, residues 85-181)
Setting: 8-mer, flanks averaged, mean of 2 arrays, mostly near background
Target sequence (chain): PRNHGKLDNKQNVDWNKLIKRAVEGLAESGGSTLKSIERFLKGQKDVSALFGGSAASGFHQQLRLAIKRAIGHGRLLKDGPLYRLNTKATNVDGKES
Sequence | E-score
CACAGGTA | -0.157
GCTAAGCA | 0.117
CATCATAA | -0.144
GAGGGGGC | 0.092
TCTAAGAA | 0.112
TCGAGGCA | 0.171
AGAGTGTC | 0.152
TGGGGTAA | -0.0501
AACCAATG | 0.0212
ATGGTTGG | -0.0167
CTTGGGTA | -0.0791
GAAGATCC | -0.0937
AAAAGAGC | -0.103
ACTAGGAG | 0.0246
AACCGCGT | 0.127
GTGCTGGA | 0.0175
GCATCTAC | -0.0821
AGGATCCA | -0.113
GCCGACAC | -0.0965

Single results of other studies
Substance | target | assay | test system | setting | scale | endpoint | result
PhoQ, residues 284 288 289 292 302 303 SLANIV | PhoP, residues 12 14 15 18 19 NQFFI (Escherichia coli, UniProt P23836) | Sort-seq, refers to: YFP reporter | E. coli | PhoQ-PhoP variant library, with: 10 µM Mg2+ | relative to: high Mg2+ state, higher = stronger signaling | fold induction | 18.2

Repeated from above (block 2):
Substitution | normalised enrichment score
SAVVGKLSFDSSP [L2A] | -0.348
SLVVGKLSFDSSA [P13A] | -0.464
SLVVAKLSFDSSP [G5A] | -0.209
SLVVGALSFDSSP [K6A] | -0.353
SLVVGKLSFDSAP [S12A] | -0.214
SLVVGKLSFDASP [S11A] | -0.726
SLVVGKLSADSSP [F9A] | -0.344
